Measured values pooled from the literature.
Each numbered part is a random draw from the data of one study; scales do not carry over between parts.

Set 1 — technique: RNA Bind-n-Seq; form: RNA; matrix: in vitro; tested at: 200 nM; notes: whole 134-nt RNA, ends assumed; with: 150 mM KCl; baseline: input library; reading: higher = stronger binding; endpoint: log2 enrichment
Target: Ras GTPase-activating protein-binding protein 1, full length (G3BP1, Homo sapiens, UniProt Q13283)
UniProt Q13283, sequence (whole entry, looked up): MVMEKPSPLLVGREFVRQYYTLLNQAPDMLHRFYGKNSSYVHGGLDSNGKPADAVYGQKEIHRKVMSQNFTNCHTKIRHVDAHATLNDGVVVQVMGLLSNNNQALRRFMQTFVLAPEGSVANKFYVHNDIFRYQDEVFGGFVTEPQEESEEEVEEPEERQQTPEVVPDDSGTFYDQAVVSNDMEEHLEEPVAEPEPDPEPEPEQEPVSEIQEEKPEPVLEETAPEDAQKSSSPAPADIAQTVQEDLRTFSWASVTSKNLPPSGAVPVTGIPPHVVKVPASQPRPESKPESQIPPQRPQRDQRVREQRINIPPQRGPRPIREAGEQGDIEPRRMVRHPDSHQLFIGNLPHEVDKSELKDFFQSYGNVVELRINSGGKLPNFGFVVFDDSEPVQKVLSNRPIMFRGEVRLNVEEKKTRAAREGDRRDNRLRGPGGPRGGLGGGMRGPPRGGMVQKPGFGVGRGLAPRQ
Constant ends, left off below: GGGAGUUCUACAGUCCGACGAUC … UGGAAUUCUCGGGUGUCAAGG
GUCCUGUGCUACACAUCGUAUGUACCGAAUCAAACCCAAAUUUUUUUAAACCCCCAAAAAAGUAUUAUGUUACGCCGUUCGGAUCUGCAC: -0.281
UGGCCCUGGUGGCAUGCGGGGAGGAAGAGGUAGCCUCAUGGAUCGUGGUGGUCCCGGUGGAAUGUUCAGAGGUGGCCGUGGUGGAGACAG: 0.274
AGUCCUGUGCUACACAUCGUAUGUACCGAAUCGGGGAAAAGGGGAAAAGGGGAAAAGGAAAGUAUUAUGUUACGCCGUUCGGAUCUGCAC: -0.172
GUCCUGUGCUACACAUCGUAUGUACCGAAUCGGGCCCCGGGGCCCCGGGGCCCCGGGGAAAGUAUUAUGUUACGCCGUUCGGAUCUGCAC: -0.629
AGUCCUGUGCUACACAUCGUAUGUACCGAAUCGGGAAAAAAAGGGAGGGUUUUUGGGAAAGUAUUAUGUUACGCCGUUCGGAUCUGCACU: -0.0475
GCAGGAAGUAAAAACAAAUGGAAAUGCUUCGGGUAGUGGCAGGGGUGGGGGUUGCUAAGGAAAGGGUGGGAUGGGAGUGGGUAAAGAGUU: 0.826
UGUGCUACACAUCGUAUGUACCGAAUCGGCCCCCCCGGGGCCCCCCCGGGGCCCCCCCGGGGAAAGUAUUAUGUUACGCCGUUCGGAUCU: -2.3

Set 2 — technique: protein-binding microarray; form: double-stranded DNA, one strand shown; matrix: in vitro; tested at: 250 nM; notes: 60-bp whole probe; with: salmon DNA 0.4 mg/ml; baseline: random background probes; reading: higher = stronger binding; endpoint: log fluorescence; constant ends, left off below: GCCTAGCAC … GTCTTGATTCGCTTGACGCTGCTG
Target: Interferon regulatory factor 5, full length, phosphomimetic (IRF5, Homo sapiens, UniProt Q13568-2, residues 1-514, K96S/S451D/S453D/S456D/S462D)
GACGATTTCAGGATCGAGACGTGCTAG: 0.459 z-score
GTAGGTTTCGGTTTCGGTTAGTGCTAG: 11.8 z-score
GAAGGTATCGACTTTCGGGACGTGCTA: 6.89 z-score
TTAGGTTTCGGTATCAGTTAGTGCTAG: 10.3 z-score
ACCCTTGAGTGGTCCAGAGTGTGCTAG: -0.715 z-score
TTAGATTCAAGTTTCGATTAGTGCTAG: 8.76 z-score
GACGGACTGGACTTTCGGTACGTGCTA: 8.3 z-score

Set 3 — technique: universal PBM; form: double-stranded DNA, one strand shown; matrix: in vitro; tested at: 600 nM; reading: higher = stronger binding; endpoint: E-score
Target: Sal-like protein 4, full length isoform A (SALL4, Homo sapiens, UniProt Q9UJQ4, residues 1-1053)
UniProt Q9UJQ4, sequence (whole entry, looked up): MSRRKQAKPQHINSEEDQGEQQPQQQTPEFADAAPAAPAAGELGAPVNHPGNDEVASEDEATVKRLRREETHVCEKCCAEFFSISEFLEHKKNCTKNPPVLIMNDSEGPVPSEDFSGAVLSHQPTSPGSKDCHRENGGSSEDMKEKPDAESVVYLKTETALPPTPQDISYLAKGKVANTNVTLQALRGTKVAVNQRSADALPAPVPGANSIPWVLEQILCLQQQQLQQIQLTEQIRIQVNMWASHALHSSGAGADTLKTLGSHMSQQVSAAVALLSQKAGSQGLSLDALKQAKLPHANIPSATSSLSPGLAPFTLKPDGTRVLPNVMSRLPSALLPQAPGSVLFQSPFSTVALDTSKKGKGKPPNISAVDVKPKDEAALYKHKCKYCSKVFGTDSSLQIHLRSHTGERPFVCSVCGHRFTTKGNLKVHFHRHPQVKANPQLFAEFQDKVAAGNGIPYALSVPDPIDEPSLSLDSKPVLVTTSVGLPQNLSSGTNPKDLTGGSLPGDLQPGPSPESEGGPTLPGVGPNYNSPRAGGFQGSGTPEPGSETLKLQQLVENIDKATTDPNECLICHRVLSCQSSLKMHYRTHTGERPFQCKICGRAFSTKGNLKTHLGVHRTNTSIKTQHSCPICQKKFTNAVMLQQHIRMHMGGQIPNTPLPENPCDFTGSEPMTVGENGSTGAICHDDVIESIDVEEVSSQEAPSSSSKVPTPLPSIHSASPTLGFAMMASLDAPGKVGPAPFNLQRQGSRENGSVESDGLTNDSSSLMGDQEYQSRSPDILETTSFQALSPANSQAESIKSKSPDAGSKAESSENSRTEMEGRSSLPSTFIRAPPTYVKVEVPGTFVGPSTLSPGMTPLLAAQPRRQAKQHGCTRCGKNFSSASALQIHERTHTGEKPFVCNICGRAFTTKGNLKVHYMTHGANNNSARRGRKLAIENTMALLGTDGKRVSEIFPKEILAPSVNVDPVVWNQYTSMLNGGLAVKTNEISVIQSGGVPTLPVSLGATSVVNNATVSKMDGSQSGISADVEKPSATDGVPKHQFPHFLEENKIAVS
Notes: 8-mer, flanks averaged, mean of replicates
CGACGGAC: -0.246
CAAATCTG: 0.0581
CACCTTTA: 0.0488
ACATCCAG: 0.0414
CATTACGA: 0.132
CCACTAAC: 0.108
ACGTTCAG: -0.029
ATCGAGCG: -0.171
CTTTTCGC: 0.0212
CCGCAACA: 0.0172
AAGCATGA: 0.0715
TGGGCGAA: -0.0952
CCGTTGAA: -0.0325

Further values, each from its own experiment
PhoQ, residues 284 288 289 292 302 303 GTAMQF  fold induction (PhoP, residues 12 14 15 18 19 TPLRH (Escherichia coli, UniProt P23836); Sort-seq, item: YFP reporter; E. coli; PhoQ-PhoP variant library, with: 10 µM Mg2+; baseline: high Mg2+ state, higher = stronger signaling): 0.793

Repeated from above (set 2):
GACGATTTCAGGATCGAGACGTGCTAG: 0.459 z-score
GTAGGTTTCGGTTTCGGTTAGTGCTAG: 11.8 z-score
GAAGGTATCGACTTTCGGGACGTGCTA: 6.89 z-score
TTAGGTTTCGGTATCAGTTAGTGCTAG: 10.3 z-score
